Measured values gathered from unrelated publications.
A part holds a random share of what one study measured.

Sample 1 — method: RNA Bind-n-Seq; form: RNA; medium: in vitro; tested at: not given; reference: input RNA pool; reading: higher = stronger binding
Target: RING finger protein unkempt homolog, zinc fingers 1-6, GST-SBP tag (UNK, Homo sapiens, UniProt Q9C0B0, residues 30-357)
Sequence of UniProt Q9C0B0 (30-357, looked up): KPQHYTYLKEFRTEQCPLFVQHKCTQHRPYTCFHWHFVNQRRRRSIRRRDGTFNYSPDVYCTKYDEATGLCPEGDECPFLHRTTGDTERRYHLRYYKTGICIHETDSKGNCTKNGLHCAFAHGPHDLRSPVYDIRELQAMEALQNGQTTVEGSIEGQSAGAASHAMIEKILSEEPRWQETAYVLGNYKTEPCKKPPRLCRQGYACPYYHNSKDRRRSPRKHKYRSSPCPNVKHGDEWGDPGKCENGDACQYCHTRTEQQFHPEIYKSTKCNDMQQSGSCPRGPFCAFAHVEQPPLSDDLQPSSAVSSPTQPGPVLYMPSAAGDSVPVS
Setting: RNA with constant flanks, human-mouse chimeric sites, ends assumed
Constant ends, left off below: GGGAGUUCUACAGUCCGACGAUC … CAACAGAGGAUUGAGCAUCA
| Strand | bound/input enrichment |
| --- | --- |
| AAAGAGAAACUAAAGCAACUAAUAGAGGAAGAGGAUUGCAAAGAGAAUUUCAUAGAGAAACUAGGAUUUUAUUAGCAACAUGAGUUAUAUUCCAGAGCGUCUCAGAAACCCCAGCCAAAC | 8.07 ratio |
| GACUUGGGACCGUCCUGGGCUAGUACAAAUAGCGGCAGUGGAGGCUCAGAGGAAAGUUUUGUUAGUGGAGGCAGUGGUAGAGGCCGUCAUGUACGGUCCUUUACUCGAUAGAUGUGUUCU | 0.698 ratio |
| UUGGAAGGACCAGAGCCUAAUCAACUGAAACCAUUAGUUAUACAGGCUAUGCCCACCCUAAUAGAACUAAUGAAAGACCCCAGUGUAGUUGUUCGAGACACAACAGCGUGGACUGUGGGC | 0.399 ratio |
| CCCUCCCCGGGCCACCCACCCCUCCCGGCUCCCCGCCAGAGCAAGGUUUUCUUCUGUUUUCAUAGCAAAUAAGAAAAAUGUUCUACGCACAUUUUGUCCUCAGUAAACGAGGGCCUCUGG | 1.92 ratio |
| CUAGCAGUCCAGCAGCUAGAAGGAGCCUUGAGACAAACACUCCACACACAGGGAAGGCGAUAACAUUGUACAUUGGUUUACAUUUUUUCCCCCUGUGGAUUUUUCUAUCCUAGUGCUUGC | 0.403 ratio |
| AGCACAACCCCAGCAAAGCUAAGAAAUCCUUGUACAAGUGAACAGAACUGCACCAGCCCAUUUAGCUACAAAAAUGUGCUUAGUCUUACUAAUAAAGGAGAGUUUUUCAAUGAACUUGUU | 0.91 ratio |
| GGACAUCUGUCAAAUUGUUAUGUUCCUAAAAACGUAGUGAACACUCUGAUACACUUCAUCUGCUUGUACAUCUGUAUGAUAGAGAAACAGAAAUCUAUUAAUCCAAGCAAUGUGUCACUU | 0.119 ratio |
| AAAGAACUACUGAGGCAAGGCAGCAAAUUUAGGAGAGAUGUAUCAACACUAUUAAUAGAGUUAGGAUUCCAAAUUAAAAAGAAAACUAAGACAUUAUACAUCAACAAAGCCAAUGUGUGG | 3.28 ratio |

Sample 2 — method: protein binding microarray; form: double-stranded DNA, one strand shown; medium: in vitro; tested at: not given; reference: not given; reading: higher = stronger binding
Target: Histone acetyltransferase KAT6A, winged helix 2, GST fusion (KAT6A, Homo sapiens, UniProt Q92794, residues 85-181)
Setting: 8-mer, flanks averaged, mean of 2 arrays, mostly near background
Construct (chain): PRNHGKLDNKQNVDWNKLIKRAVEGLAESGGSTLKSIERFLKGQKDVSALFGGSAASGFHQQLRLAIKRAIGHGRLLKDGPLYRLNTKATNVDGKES
| Strand | E-score |
| --- | --- |
| ACATTAAC | -0.206 |
| AGAGAGCA | 0.127 |
| AAAGCCTA | -0.0328 |
| ACCATGGT | -0.165 |
| ATATCCCG | 0.105 |
| GCACACAC | 0.0597 |
| AAGTCGCT | -0.13 |
| ATAAAGAG | -0.0828 |
| CCTCCACA | 0.08 |
| AGAGATAA | -0.0355 |
| CCCTAGAC | 0.00259 |
| AGAATCTC | -0.0165 |
| GCAAGTGC | 0.0384 |
| CAACATCC | -0.103 |
| CGATTGTA | -0.0229 |
| GGCATCCC | 0.0182 |
| CGTCACGC | 0.0255 |
| CACAAGCA | 0.0611 |
| ACGGACGT | -0.275 |
| CTCCACCA | -0.0507 |
| AAAGGTGC | -0.124 |
| AGGTACCT | -0.042 |
| CACCAGGA | 0.0225 |
| AGGCGGAA | 0.164 |
| GTAGTTCA | -0.134 |

Sample 3 — method: protein-binding microarray; form: double-stranded DNA, one strand shown; medium: in vitro; tested at: 250 nM; setting: 60-bp whole probe; together with: salmon DNA 0.4 mg/ml; reference: random background probes; reading: higher = stronger binding; constant ends, left off below: GCCTAGCAC … GTCTTGATTCGCTTGACGCTGCTG
Target: Interferon regulatory factor 5, full length, phosphomimetic (IRF5, Homo sapiens, UniProt Q13568-2, residues 1-514, K96S/S451D/S453D/S456D/S462D)
| Strand | log fluorescence [z-score] |
| --- | --- |
| GACGGAATGGGTTTCGGGACGTGCTAG | 2.85 |
| TCAGATCTCAGTATCGATTAGTGCTAG | 6.49 |
| TACGGTTTCGACTTTCGGGACGTGCTA | 8.24 |
| GACGGTTTAGGACTGGGGACGTGCTAG | -0.164 |
| TTACCTTTTCACTTTACACAGTGCTAG | 2.48 |
| TTAGGTCACGGTTTCGGTTAGTGCTAG | 7.6 |
| GACCGTTTCGACTATCGGGACGTGCTA | 6.45 |
| TCATTTCTCAACCTCCAACTGTGCTAG | 0.672 |
| TTAGTACTGGGTATCGGTTAGTGCTAG | 4.19 |
| GACGAACTGAGGTTTCGAGACGTGCTA | 1.42 |
| CTGCCTTCAGAGCTGTCTGTGTGCTAG | -0.492 |
| TTAGATATCGGGTATCGATTAGTGCTA | 5.54 |
| AACGGTATCGACTTTCGGGACGTGCTA | 7.07 |
| TTAGGACTGCTTTTCCTTTAGTGCTAG | 0.0507 |
| GACTGACTGCTACTGCTGACGTGCTAG | -0.661 |
| GACGGTATCGGGTATCGGGGCGTGCTA | 3.2 |
| TACGGTCTCCTTTTCCTGACGTGCTAG | 0.304 |
| TCAGAATTCAGAATGGGACTGTGCTAG | -0.237 |
| TTAGATATCGGGTTTCAATTAGTGCTA | 3.2 |

Sample 4 — method: RNA Bind-n-Seq; form: RNA; medium: in vitro; tested at: 365 nM; reference: no-protein control; reading: higher = stronger binding
Target: RNA binding protein fox-1 homolog 2, RRM domain, GST-SBP tag (RBFOX2, Homo sapiens, UniProt O43251-10, residues 100-194)
Setting: natural RNA segment, single round, ends assumed
Constant ends, left off below: GGGAGUUCUACAGUCCGACGAUC … UGGAAUUCUCGGGUGCCAA
Residues (chain): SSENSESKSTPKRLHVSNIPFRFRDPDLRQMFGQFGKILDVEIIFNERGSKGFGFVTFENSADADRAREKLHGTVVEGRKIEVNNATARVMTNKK
| Strand | RBNS enrichment (R) |
| --- | --- |
| CACAAAGUGAAAGUGGACCCUCCAGAAAUUUUAGGAAUUGCCACAAAGAUUGAUGAUAGAUGAAUAAACAGAUUUGUGGCCUCUGGUAAAGAAAUCCAGCCAAGUUCCUC | 1.46 |
| CAGUUGACCAUCUAGGGCAUAUUAAACUGUGAAGCUUUCCCAGUGCACUUUGAAUAUGGAAGAGAAUUUGAGCAGACCCCCGCGGGACCAAGACUGAAAGAGGCAAGGUC | 1.71 |
| GUUUCCUGGCUGCUAGUGACCUGCUGUCUACUCCUCCCUCUACAUUGAGCUCUGUUGUAAAUACAUCGCACCAGAGGCCACUGUGACGCCGCUGUCUCCUCCUCUCCAUC | 0.605 |
| GCCCUGCACUAGACACCCGACCCUUACUAGCCACCAGCCUUAAUUAAACACGGCCUUGGCCUAAGGCCUGGCUGGCUAGUGCUCUGAGUGACUCUAUUUUCCCUGAGCUU | 0.235 |
| AAGAGAUUCCUAUUACUGCAGUACAUACGUCUGCCAGGGGUAACCUGGCCACUGUCCCUGUCCUUCUACAGAACCUGAGGGCAAAGAUGGUGGCUGUGUCUCUCCCCGGU | 0.242 |
| ACUGACUGAGGGGCCAUUGAGAGCCGGUGGGCUCUGCCAUGGAACCCUUCCGUUGAUUAGCAAUGACUGUGCUUGACCCACCCACCUACCCUACUAAUGAAUUUCUGUAG | 0.2 |
| UGGUCCCAUGGCUGAAGCUGGAGCAGCGGAUUGCUCUGGAGCAGCCAAGGCCGCCAGCGUGUGGAGCAGAGCUCUCCCCUCCUGCUGGGCGUGUGUGACACUGAUGAGUU | 0.418 |
| GAAUUAAUCACUAUAGGAUUAAGCCUUUAUCCUAUAGUGUCCAGUUUUUCUCUACUUCUGAAAUGAGUUGUUCACCAGUAUUAUCUUCUCCCAUCCUAAGCUGUUCAUUU | 0.502 |

Excerpt of the above (sample 3):
| Strand | log fluorescence [z-score] |
| --- | --- |
| TTAGGACTGCTTTTCCTTTAGTGCTAG | 0.0507 |
| GACTGACTGCTACTGCTGACGTGCTAG | -0.661 |
| GACGGTATCGGGTATCGGGGCGTGCTA | 3.2 |
| TACGGTCTCCTTTTCCTGACGTGCTAG | 0.304 |
| TCAGAATTCAGAATGGGACTGTGCTAG | -0.237 |
